Results from different studies.
Compare with care: the assays were run in different laboratories. ± marks the error that the study gave.

Compound | target | test | system | setting | IC50
N=C(N)NC[C@@H]1O[C@H](O[C@H]2[C@@H](O)[C@H](O[C@@H]3[C@@H](O)[C@H](NC(=N)N)C[C@H](NC(=N)N)[C@H]3O[C@H]3O[C@H](CNC(=N)N)[C@@H](O)[C@H](O)[C@H]3NC(=N)N)O[C@@H]2CO)[C@H](NC(=N)N)[C@@H](O)[C@@H]1O | RNase P holoenzyme Escherichia coli | – | – | 37 °C, together with: 10 mM Mg2+ | ~6 µM
O=C(CCCCCc1ccc2c(c1)c1ccccc1n2Cc1ccccc1)NO | histone deacetylase, mouse | inhibitor | GL261 cell nuclear extract | – | 0.8 µM
CCCCC/C=C/C(=O)CCc1ccc(O)c(OC)c1 | mAb 2-LD2 | antibody binding, indirect competitive ELISA | – | together with: coating antigen hapten 4-OVA | 2.38 ng/mL
C=CC(=O)N1[C@@H](c2ccc3c(c2)OCO3)c2[nH]c3ccccc3c2C[C@H]1C(=O)N1CCN2CCOC[C@H]2C1 | human NanoLuc-cyclin E1 N112C | probe labelling, BRET-ABPP | HEK293T cell lysate | 2 h pre-treatment, target engagement, together with: probe YZ-01-A 10 µM 90 min | 1 µM
Cc1cc(N)c2cc(NC(=O)CCC(=O)Nc3ccc4nc(C)cc(N)c4c3)ccc2n1 | factor Xa | anticoagulant neutralization, chromogenic | – | together with: fondaparinux 0.2 IU/mL, human antithrombin III | 38.9 ± 2.1 µM
COc1cc(CCC(C)=O)ccc1O | mAb 2-LD2 | antibody binding, indirect competitive ELISA | – | together with: coating antigen hapten 2-OVA | > 4000 ng/mL
O=C(CCCCCCCc1ccc2[nH]c3ccccc3c2c1)NO | histone deacetylase, mouse | inhibitor | GL261 cell nuclear extract | – | 0.6 µM
CN1CCN(Cc2ccc(NC(=O)c3ccc(C(C)(C)C)c(C#Cc4cnc5cccnn45)c3)cc2C(F)(F)F)CC1 | RIPK2 | NF-kB reporter gene, inhibitor | HEK-Blue NOD2 NF-kB-SEAP | 8 h, together with: 1 µg/mL L18-MDP | > 10 µM
CC[C@H](C)[C@@H]1NC(=O)[C@H](CCCNC(=N)N)NC(=O)[C@@H]2CCCN2C(=O)[C@H](C(C)C)NC(=O)[C@H](CO)NC(=O)[C@H]([C@@H](C)O)NC(=O)CNC(=O)[C@H](CC(=O)O)NC(=O)[C@@H](NC(=O)[C@@H](N)C(C)C)CSSC[C@@H](C(=O)N[C@H](C(=O)O)C(C)C)NC1=O | TGF-beta signalling | Smad2/3 reporter gene, antagonist | HEK-293T | 4 h, together with: TGF-beta 1 ng/mL | > 100 µM
Cc1cc(N)c2cc(NC(=O)Nc3ccc4nc(C)cc(N)c4c3)ccc2n1 | factor Xa | anticoagulant neutralization, chromogenic | – | together with: enoxaparin 0.2 IU/mL, human antithrombin III | 6.4 ± 0.4 µM
CC(C)c1cnc(-c2cc(Cl)ccc2F)cc1Nc1ccncc1C(=O)NC(CO)CO | TGF-β receptor type 1 (mouse) | SMAD2 Ser465/467 phosphorylation, inhibitor | 4T1 | total drug, together with: TGF-β | 0.0667 ± 0.0115 µM
O=C(CCCC(=NO)c1ccc2c(c1)c1ccccc1n2CC(=O)NO)NO | histone deacetylase, mouse | inhibitor | GL261 cell nuclear extract | – | 1.2 µM
Cc1cc(N)c2cc(NC(=O)COCC(=O)Nc3ccc4nc(C)cc(N)c4c3)ccc2n1 | factor Xa | anticoagulant neutralization, chromogenic | – | together with: enoxaparin 0.2 IU/mL, human antithrombin III | 13.6 ± 0.6 µM

A few entries again:
Compound | target | test | system | setting | IC50
O=C(CCCCCCCc1ccc2[nH]c3ccccc3c2c1)NO | histone deacetylase, mouse | inhibitor | GL261 cell nuclear extract | – | 0.6 µM
CN1CCN(Cc2ccc(NC(=O)c3ccc(C(C)(C)C)c(C#Cc4cnc5cccnn45)c3)cc2C(F)(F)F)CC1 | RIPK2 | NF-kB reporter gene, inhibitor | HEK-Blue NOD2 NF-kB-SEAP | 8 h, together with: 1 µg/mL L18-MDP | > 10 µM
